Published values from different studies.
Each numbered part is a random draw from the data of one study; scales do not carry over between parts.

Series 1
Target: Fragile X messenger ribonucleoprotein 1, C-terminal low-complexity region (Fmr1, Mus musculus, UniProt P35922)
Technique: RNA Bind-n-Seq
Form: RNA
Medium: in vitro
Concentration: 200 nM
Notes: whole 134-nt RNA, ends assumed
Added: 150 mM KCl
Reference: input library
Direction: higher = stronger binding
For `GGGAGUUCUACAGUCCGACGAUCUCCUCAAGUCCUGUGCUACACAUCGUAUGUACCGAAUCGGGCGGCGGGCGGGAAAGUAUUAUGUUACGCCGUUCGGAUCUGCACUUCCAGUGGAAUUCUCGGGUGUCAAGG`, the log2 enrichment was 0.758.
For `GGGAGUUCUACAGUCCGACGAUCAACUGGAAGAACAGACCCGUAGGGCUCUGGAACUUGAGCAGGAACGGAAGCGUGCCCAGAGCGAGGCUGAAAAGCUGGCCAAGGAGCGUCUGGAAUUCUCGGGUGUCAAGG`, the log2 enrichment was -0.879.
`GGGAGUUCUACAGUCCGACGAUCUCCUGUGCUACACAUCGUAUGUACCGAAUCGGGGUUUUUGGGUUUUUGGGUUUUUGGGGAAAGUAUUAUGUUACGCCGUUCGGAUCUGCAUGGAAUUCUCGGGUGUCAAGG` has a log2 enrichment of 0.45.
`GGGAGUUCUACAGUCCGACGAUCUCCUGUGCUACACAUCGUAUGUACCGAAUCGGGGUUUGGGGAAAAAAAGGGGUUUGGGGAAAGUAUUAUGUUACGCCGUUCGGAUCUGCAUGGAAUUCUCGGGUGUCAAGG` gave a log2 enrichment of 0.773.

Series 2
Target: Histone acetyltransferase KAT6A, winged helix 2, GST fusion (KAT6A, Homo sapiens, UniProt Q92794, residues 85-181)
Technique: protein binding microarray
Form: double-stranded DNA, one strand shown
Medium: in vitro
Concentration: not given
Notes: 8-mer, flanks averaged, mean of 2 arrays, mostly near background
Reference: not given
Direction: higher = stronger binding
Construct (chain): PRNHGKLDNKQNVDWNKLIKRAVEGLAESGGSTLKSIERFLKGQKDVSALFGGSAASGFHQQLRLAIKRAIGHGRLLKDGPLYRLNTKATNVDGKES
With `AGAAAAAA` the E-score was 0.178.
With `CTGACAAG` the E-score was 0.0244.
For `AAGCAGGG`, the E-score was 0.0917.
With `ACGTATCG` the E-score was -0.107.

Series 3
Target: RNA binding protein fox-1 homolog 2, RRM domain, GST-SBP tag (RBFOX2, Homo sapiens, UniProt O43251-10, residues 100-194)
Technique: RNA Bind-n-Seq
Form: RNA
Medium: in vitro
Concentration: 365 nM
Notes: natural RNA segment, single round, ends assumed
Reference: no-protein control
Direction: higher = stronger binding
Under “RBNS enrichment (R)”, `GGGAGUUCUACAGUCCGACGAUCUCCUCUCUUUCUGUGUUUUCUUAGGAUGUGCACUUUAAUUUAGGAUUGUAACGCCUAAUAAUAUUUCUGUGAGCCUUUAAUGUGAUUUAUAAGAUGGCCGAAUUACUGAAUGGAAUUCUCGGGUGCCAA` is recorded as 1.01.
`GGGAGUUCUACAGUCCGACGAUCGCCUGCUUCUGGCCUGCCUGUGUCUGCUGCCGAGAAGCCCGUGCCCCCGGGAGGGCUGCCGCACUGCCAAAGAGUCUCCCUCCUCCUGGGGAAGGGGCUGCCAACGAACCUGGAAUUCUCGGGUGCCAA` — result for “RBNS enrichment (R)”: 2.31.
`GGGAGUUCUACAGUCCGACGAUCACUCUGGUUCUUUUAAAAUUAAUUUUGGUUGGUGUUGGGGGAGGCGCGAGUGCGUGUGAGAAGAACCGACCCACCCCGCGCAAGGGGAAGCCUCCUGUCUCCCCUUUCCCUGGAAUUCUCGGGUGCCAA` — result for “RBNS enrichment (R)”: 0.477.

Single results of other studies
`PhoQ, residues 284 288 289 292 302 303 QWQEDG` gave a fold induction of 1.3 (PhoP, residues 12 14 15 18 19 SPWRL (Escherichia coli, UniProt P23836); Sort-seq, measured: YFP reporter; E. coli; PhoQ-PhoP variant library, added: 10 µM Mg2+; reference: high Mg2+ state, higher = stronger signaling).

Excerpt of the above (series 3):
`GGGAGUUCUACAGUCCGACGAUCGCCUGCUUCUGGCCUGCCUGUGUCUGCUGCCGAGAAGCCCGUGCCCCCGGGAGGGCUGCCGCACUGCCAAAGAGUCUCCCUCCUCCUGGGGAAGGGGCUGCCAACGAACCUGGAAUUCUCGGGUGCCAA` — result for “RBNS enrichment (R)”: 2.31.
